Measured values collected from several papers.
Numbers after ± are the reported error.
Cell line: RAW264.7

C[C@H]1[C@H](C)CC[C@]2(C(=O)O)CC[C@]3(C)C(=CC[C@@H]4[C@@]5(C)CC[C@H](O)C(C)(C)[C@@H]5CC[C@]43C)[C@H]12 gave an EC50 of 9 ± 1 µM (LPS-induced NO production, inhibitor, Griess reaction; 24 h, with: 100 ng/mL LPS).
The IC50 of O=C(CSc1nnc(-c2ccc(NC(=O)c3cccnc3)cc2)o1)Nc1cccc(Br)c1 is reported as greater than 100 µM (NO release, inhibitor, Griess; LPS-stimulated).
For CC(C)/C=C/c1c(O)cc(/C=C/C2=CC(=O)OC2CC(=O)O)cc1O (stereo not drawn), the IC50 was greater than 25 mg/L (NO release, inhibitor; LPS-stimulated).
The viability of ON=Cc1c(-c2ccccc2)[nH]c2ccccc12 is reported as 90.8 ± 2.4% (sulforhodamine B; 50 µM, 20 h; baseline: vehicle).
The mRNA level of CCOC(=O)c1[nH]c2cc(Cl)ccc2c1C(=O)C[C@@H](C)CCCC(C)C is reported as greater than 2 fold (item: IL-10; 1 nM, 20 h, lowest effective concentration, with: LPS/IFNγ last 4 h, linoleic acid 10 µM; baseline: untreated).
For Cc1ccc(C)c(NC(=O)CSc2nnc(-c3ccc(NC(=O)c4cccnc4)cc3)o2)c1, the IC50 was 60.2 µM (NO release, inhibitor, Griess; LPS-stimulated).
For CCN(CC)C(=O)Cc1c(-c2ccc(OCC[18F])cc2)nn2c(C)cc(C)nc12, the maximal uptake was 45.55 ± 0.02% (1 h, 37 °C; baseline: added dose).
The inhibition of COC(=O)[C@@H]1Cc2c([nH]c3ccccc23)CN1C(=O)OCC(C)C is reported as 11.1% (NO release, inhibitor, Griess; 50 µM, LPS-stimulated).
With FC(F)(F)Oc1ccc(-c2cc3ccccc3[nH]2)cc1 the viability was 106 ± 3.5% (sulforhodamine B; 50 µM, 20 h; baseline: vehicle).
O=C(O)[C@H]1Cc2c([nH]c3ccccc23)CN1CC1CC1 has an inhibition of -10.3% (NO release, inhibitor, Griess; 50 µM, LPS-stimulated).
COc1ccc(S(=O)(=O)Nc2ccc(N(CC(=O)N3CCSC3=O)S(=O)(=O)c3ccc(OC)cc3)c3ccccc23)cc1 has an EC50 of 0.12 µM (NO production, inhibitor; with: LPS 20 ng/mL).
Nn1c(SCC(=O)Nc2ccc([N+](=O)[O-])cc2)nnc1-c1ccc(NC(=O)c2cccnc2)cc1 gave an IC50 of 9.68 µM (IL-6 release, inhibitor, ELISA; LPS-stimulated).
Clc1ccc2[nH]c(-c3ccccc3)cc2c1 has a viability of 77.8 ± 2.9% (sulforhodamine B; 50 µM, 20 h; baseline: vehicle).
C[C@@H]1C[C@H]2[C@@H]3CCC4=CC(=O)C=C[C@]4(C)[C@@]3(F)[C@@H](O)C[C@]2(C)[C@@]1(O)C(=O)CO — result for “iNOS mRNA fold change”: 0.98 ± 0.11 (qPCR; 0.5 µM, 1 h pretreatment, with: LPS 10 ng/mL, 24 h; baseline: LPS alone).
The viability of Nc1ccc2[nH]c(-c3ccccc3)cc2c1 is reported as 100 ± 6.7% (sulforhodamine B; 50 µM, 20 h; baseline: vehicle).
O=C(CSc1nnc(-c2ccc(NC(=O)c3cccnc3)cc2)o1)Nc1ccc([N+](=O)[O-])cc1 gave an IC50 of 0.4 µM (NO release, inhibitor, Griess; LPS-stimulated).
Fc1ccc(-c2cc3ccccc3[nH]2)cc1 has an inhibition of 58% (NO release, inhibitor, Griess; 50 µM, 20 h, LPS-stimulated).
O=C(O)Cc1ccccc1Nc1c(Cl)cccc1Cl gave an IC50 of 23 µM (IL-6 release, inhibitor, ELISA; LPS-stimulated).
CC(C)C[C@H](NC(=O)[C@H](CC(C)C)NC(=O)[C@H](CCCCN)NC(=O)[C@H](CC(C)C)NC(=O)[C@@H]1CCCN1C(=O)[C@H](CCCCN)NC(=O)[C@H](CCCCN)NC(=O)[C@H](CC(C)C)NC(=O)[C@H](CC(C)C)NC(=O)[C@H](CCCCN)NC(=O)[C@H](CCCCN)NC(=O)[C@H](Cc1c[nH]c2ccccc12)NC(=O)[C@H](CCCCN)NC(=O)CNC(=O)CNC(=O)CNC(=O)[C@H](CCCNC(=N)N)NC(=O)[C@H](CCCNC(=N)N)NC(=O)[C@H](CCCNC(=N)N)NC(=O)[C@H](CCCNC(=N)N)NC(=O)[C@H](CCCNC(=N)N)NC(=O)[C@H](CCCNC(=N)N)NC(=O)[C@H](CCCNC(=N)N)NC(=O)[C@H](CCCNC(=N)N)NC(=O)[C@@H](N)CCCNC(=N)N)C(=O)N[C@@H](CCCCN)C(=O)N[C@@H](CCCCN)C(N)=O — result for NO production: “inhibited” (2 µM, 24 h, with: LPS 20 ng/mL).
Cc1ccc(C=Nn2c(-c3ccc(NC(=O)c4cccnc4)cc3)n[nH]c2=S)cc1 gave an IC50 of 7.73 µM (TNF-α release, inhibitor, ELISA; LPS-stimulated).
The inhibition of Cc1ccccc1-c1cc2ccccc2[nH]1 is reported as 97.5% (NO release, inhibitor, Griess; 50 µM, 20 h, LPS-stimulated).

For quick reference, copied from above:
C[C@H]1[C@H](C)CC[C@]2(C(=O)O)CC[C@]3(C)C(=CC[C@@H]4[C@@]5(C)CC[C@H](O)C(C)(C)[C@@H]5CC[C@]43C)[C@H]12 gave an EC50 of 9 ± 1 µM (LPS-induced NO production, inhibitor, Griess reaction; 24 h, with: 100 ng/mL LPS).
For Cc1ccc(C)c(NC(=O)CSc2nnc(-c3ccc(NC(=O)c4cccnc4)cc3)o2)c1, the IC50 was 60.2 µM (NO release, inhibitor, Griess; LPS-stimulated).
C[C@@H]1C[C@H]2[C@@H]3CCC4=CC(=O)C=C[C@]4(C)[C@@]3(F)[C@@H](O)C[C@]2(C)[C@@]1(O)C(=O)CO — result for “iNOS mRNA fold change”: 0.98 ± 0.11 (qPCR; 0.5 µM, 1 h pretreatment, with: LPS 10 ng/mL, 24 h; baseline: LPS alone).
